Assay results pooled from the literature.
Parts stem from different laboratories: compare values within a part only.

Study 1 — Substance: deucravacitinib; technique: multiple ascending dose; host: healthy human; route: oral
4 mg twice daily — “subjects with rash”: 22.2%.
12 mg once daily — “subjects with rash”: 44.4%.
The “subjects with rash” was 22.2% (12 mg twice daily).

Other studies, line by line
With `maraviroc` the AUC(0-12h) was 2950 ng·h/mL (black CYP3A5 intermediate metabolizers, plasma; 300 mg twice daily).
`semaglutide` — result for “participants with adverse events”: 74% (item: drug dose not changed; human, safety analysis set; concentration not given, 32 weeks, run-in).
Under “Papp apical to basolateral”, `chicoric acid` is recorded as “decreased” (IPEC-J2 monolayer; together with: vinblastine 30 µM; baseline: without inhibitor).

Some of these lines once more (other studies, line by line):
With `maraviroc` the AUC(0-12h) was 2950 ng·h/mL (black CYP3A5 intermediate metabolizers, plasma; 300 mg twice daily).
